Results of several laboratories.
Lines come from different studies, so protocols differ.
T1: PSMG1/PSMG2 heterodimer (Homo sapiens); chain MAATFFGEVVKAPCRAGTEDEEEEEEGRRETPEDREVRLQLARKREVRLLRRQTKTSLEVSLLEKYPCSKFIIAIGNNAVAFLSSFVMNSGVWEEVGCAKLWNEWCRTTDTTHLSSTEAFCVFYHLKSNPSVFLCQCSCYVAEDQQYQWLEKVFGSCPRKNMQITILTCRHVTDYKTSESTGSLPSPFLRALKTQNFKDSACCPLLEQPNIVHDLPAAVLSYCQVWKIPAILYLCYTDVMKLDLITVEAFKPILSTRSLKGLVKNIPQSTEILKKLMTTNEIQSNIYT; chain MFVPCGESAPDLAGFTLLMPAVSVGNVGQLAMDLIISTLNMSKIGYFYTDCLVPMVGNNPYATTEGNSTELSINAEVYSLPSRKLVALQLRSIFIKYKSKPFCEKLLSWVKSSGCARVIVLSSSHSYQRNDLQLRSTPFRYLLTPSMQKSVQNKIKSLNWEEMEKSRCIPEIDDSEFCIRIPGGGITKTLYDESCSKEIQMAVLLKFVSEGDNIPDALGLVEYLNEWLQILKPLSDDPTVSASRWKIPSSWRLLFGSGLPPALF
B1: cysJ 52-599 C162T/C552S/E121C/N556C (Escherichia coli, UniProt P38038); E121C-N556C disulfide; sequence looked up; chain AATPAPAAEMPGITIISASQTGNARRVAEALRDDLLAAKLNVKLVNAGDYKFKQIASEKLLIVVTSTQGCGEPPEEAVALHKFLFSKKAPKLENTAFAVFSLGDSSYEFFTQSGKDFDSKLAELGGERLLDRVDADVEYQAAASEWRARVVDALKSRAPVAAPSQSVATGAVNEIHTSPYSKDAPLVASLSVNQKITGRNSEKDVRHIEIDLGDSGMRYQPGDALGVWYQNDPALVKELVELLWLKGDEPVTVEGKTLPLNEALQWHFELTVNTANIVENYATLTRSETLLPLVGDKAKLQHYAATTPIVDMVRFSPAQLDAEALINLLRPLTPRLYSIASSQAEVENEVHVTVGVVRYDVEGRARAGGASSFLADRVEEEGEVRVFIEHNDNFRLPANPETPVIMIGPGTGIAPFRAFMQQRAADEAPGKNWLFFGNPHFTEDFLYQVEWQRYVKDGVLTRIDLAWSRDQKEKVYVQDKLREQGAELWRWINDGAHIYVSGDACRMAKDVEQALLEVIAEFGGMDTEAADEFLSELRVERRYQRDVY
B2: CCDC93 305-433 (Homo sapiens, UniProt Q567U6); chain SPEKLGTSQLHRRKVISLNKQIAQKTKHLEELRASHTSLQARYNEAKKTLTELKTYSEKLDKEQAALEKIESKADPSILQNLRALVAMNENLKSQEQEFKAHCREEMTRLQQEIENLKAERAPRGDEKT
B3: PSMA5 (Homo sapiens, UniProt P28066); chain MFLTRSEYDRGVNTFSPEGRLFQVEYAIEAIKLGSTAIGIQTSEGVCLAVEKRITSPLMEPSSIEKIVEIDAHIGCAMSGLIADAKTLIDKARVETQNHWFTYNETMTVESVTQAVSNLALQFGEEDADPGAMSRPFGVALLFGGVDEKGPQLFHMDPSGTFVQCDARAIGSASEGAQSSLQEVYHKSMTLKEAIKSSLIILKQVMEEKLNATNIELATVQPGQNFHMFTKEELEEVIKDI
B4: SNAPC5 (Homo sapiens, UniProt O75971); chain MLSRLQELRKEEETLLRLKAALHDQLNRLKVEELALQSMISSRRGDEMLSSHTVPEQSHDMLVHVDNEASINQTTLELSTKSHVTEEEEEEEEEESDS
B5: UVR8 R338A (Arabidopsis thaliana, UniProt Q9FN03); sequence looked up; chain MAEDMAADEVTAPPRKVLIISAGASHSVALLSGDIVCSWGRGEDGQLGHGDAEDRPSPTQLSALDGHQIVSVTCGADHTVAYSQSGMEVYSWGWGDFGRLGHGNSSDLFTPLPIKALHGIRIKQIACGDSHCLAVTMEGEVQSWGRNQNGQLGLGDTEDSLVPQKIQAFEGIRIKMVAAGAEHTAAVTEDGDLYGWGWGRYGNLGLGDRTDRLVPERVTSTGGEKMSMVACGWRHTISVSYSGALYTYGWSKYGQLGHGDLEDHLIPHKLEALSNSFISQISGGWRHTMALTSDGKLYGWGWNKFGQVGVGNNLDQCSPVQVRFPDDQKVVQVSCGWAHTLAVTERNNVFAWGRGTNGQLGIGESVDRNFPKIIEALSVDGASGQHIESSNIDPSSGKSWVSPAERYAVVPDETGLTDGSSKGNGGDISVPQTDVKRVRI
B6: PRE1 (Saccharomyces cerevisiae, UniProt P22141); sequence looked up; chain MDIILGIRVQDSVILASSKAVTRGISVLKDSDDKTRQLSPHTLMSFAGEAGDTVQFAEYIQANIQLYSIREDYELSPQAVSSFVRQELAKSIRSRRPYQVNVLIGGYDKKKNKPELYQIDYLGTKVELPYGAHGYSGFYTFSLLDHHYRPDMTTEEGLDLLKLCVQELEKRMPMDFKGVIVKIVDKDGIRQVDDFQAQ
B7: PIK3R1 1-79 (Homo sapiens, UniProt P27986); chain MSAEGYQYRALYDYKKEREEDIDLHLGDILTVNKGSLVALGFSDGQEARPEEIGWLNGYNETTGERGDFPGTYVEYIGR
B8: SEC61B/FDFT1 /378-end 2-59 L401C/S39C (Homo sapiens); chain PGPTPSGTNVGSSGRSPSKAVAARAAGSTVRQRKNASSGTRSAGRTTSAGTGGMWRFYSRSHYSPIYLSFVMLLAALSWQYCTTLSQVTEDYVQTGEH
B9: EFR3B 716-787 (Homo sapiens, UniProt Q9Y2G0); chain VPAEEITYETLKKAIVDSVAVEEQERERRRQVVEKFQKAPFEEIAAHCGARASLLQSKLNQIFEITIRPPPS
B10: RAB32 (Homo sapiens, UniProt Q13637); sequence looked up; chain MAGGGAGDPGLGAAAAPAPETREHLFKVLVIGELGVGKTSIIKRYVHQLFSQHYRATIGVDFALKVLNWDSRTLVRLQLWDIAGQERFGNMTRVYYKEAVGAFVVFDISRSSTFEAVLKWKSDLDSKVHLPNGSPIPAVLLANKCDQNKDSSQSPSQVDQFCKEHGFAGWFETSAKDNINIEEAARFLVEKILVNHQSFPNEENDVDKIKLDQETLRAENKSQCC
B11: propionate kinase (Salmonella enterica, UniProt P74879); sequence looked up; chain MSYKIMAINAGSSSLKFQLLEMPQGDMLCQGLIERIGMADAQVTIKTHSQKWQETVPVADHRDAVTLLLEKLLGYQIINSLRDIDGVGHRVAHGGEFFKDSTLVTDETLAQIERLAELAPLHNPVNALGIHVFRQLLPDAPSVAVFDTAFHQTLDEPAYIYPLPWHYYAELGIRRYGFHGTSHKYVSGVLAEKLGVPLSALRVICCHLGNGSSICAIKNGRSVNTSMGFTPQSGVMMGTRSGDIDPSILPWIAQRESKTPQQLNQLLNNESGLLGVSGVSSDYRDVEQAANTGNRQAKLALTLFAERIRATIGSYIMQMGGLDALVFTGGIGENSARARSAVCHNLQFLGLAVDEEKNQRNATFIQTENALVKVAVINTNEELMIAQDVMRIALPATEGLCVPA
B12: SF3B1 454-1304 R625H (Homo sapiens, UniProt O75533); chain KSVNDQPSGNLPFLKPDDIQYFDKLLVDVDESTLSPEEQKERKIMKLLLKIKNGTPPMRKAALRQITDKAREFGAGPLFNQILPLLMSPTLEDQERHLLVKVIDRILYKLDDLVRPYVHKILVVIEPLLIDEDYYARVEGREIISNLAKAAGLATMISTMRPDIDNMDEYVHNTTARAFAVVASALGIPSLLPFLKAVCKSKKSWQARHTGIKIVQQIAILMGCAILPHLRSLVEIIEHGLVDEQQKVRTISALAIAALAEAATPYGIESFDSVLKPLWKGIRQHRGKGLAAFLKAIGYLIPLMDAEYANYYTREVMLILIREFQSPDEEMKKIVLKVVKQCCGTDGVEANYIKTEILPPFFKHFWQHRMALDRRNYRQLVDTTVELANKVGAAEIISRIVDDLKDEAEQYRKMVMETIEKIMGNLGAADIDHKLEEQLIDGILYAFQEQTTEDSVMLNGFGTVVNALGKRVKPYLPQICGTVLWRLNNKSAKVRQQAADLISRTAVVMKTCQEEKLMGHLGVVLYEYLGEEYPEVLGSILGALKAIVNVIGMHKMTPPIKDLLPRLTPILKNRHEKVQENCIDLVGRIADRGAEYVSAREWMRICFELLELLKAHKKAIRRATVNTFGYIAKAIGPHDVLATLLNNLKVQERQNRVCTTVAIAIVAETCSPFTVLPALMNEYRVPELNVQNGVLKSLSFLFEYIGEMGKDYIYAVTPLLEDALMDRDLVHRQTASAVVQHMSLGVYGFGCEDSLNHLLNYVWPNVFETSPHVIQAVMGALEGLRVAIGPCRMLQYCLQGLFHPARKVRDVYWKIYNSIYIGSQDALIAHYPRIYNDDKNTYIRYELDYIL
B13: BECN1 90-171 (Homo sapiens, UniProt A0A024R1X5); sequence looked up; chain STESANSFTLIGEASDGGTMENLSRRLKVTGDLFDIMSGQTDVDHPLCEECTDTLLDQLDTQLNVTENECQNYKRCLEILEQ
UniProt P61823, sequence (whole entry, unmodified, looked up): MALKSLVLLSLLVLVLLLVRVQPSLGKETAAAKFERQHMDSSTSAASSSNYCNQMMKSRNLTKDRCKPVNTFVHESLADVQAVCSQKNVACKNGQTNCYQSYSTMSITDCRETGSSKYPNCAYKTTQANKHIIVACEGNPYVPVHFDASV
UniProt Q04929, sequence (whole entry, looked up): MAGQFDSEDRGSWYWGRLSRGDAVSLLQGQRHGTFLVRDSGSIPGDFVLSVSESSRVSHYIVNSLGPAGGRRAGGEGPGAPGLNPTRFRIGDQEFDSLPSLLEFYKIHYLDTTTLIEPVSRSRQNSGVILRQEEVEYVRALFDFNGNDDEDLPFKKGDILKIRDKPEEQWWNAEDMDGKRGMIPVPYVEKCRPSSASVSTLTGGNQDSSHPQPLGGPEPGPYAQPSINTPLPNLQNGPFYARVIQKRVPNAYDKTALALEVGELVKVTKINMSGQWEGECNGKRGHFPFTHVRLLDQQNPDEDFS
UniProt Q96CV9, sequence (whole entry, looked up): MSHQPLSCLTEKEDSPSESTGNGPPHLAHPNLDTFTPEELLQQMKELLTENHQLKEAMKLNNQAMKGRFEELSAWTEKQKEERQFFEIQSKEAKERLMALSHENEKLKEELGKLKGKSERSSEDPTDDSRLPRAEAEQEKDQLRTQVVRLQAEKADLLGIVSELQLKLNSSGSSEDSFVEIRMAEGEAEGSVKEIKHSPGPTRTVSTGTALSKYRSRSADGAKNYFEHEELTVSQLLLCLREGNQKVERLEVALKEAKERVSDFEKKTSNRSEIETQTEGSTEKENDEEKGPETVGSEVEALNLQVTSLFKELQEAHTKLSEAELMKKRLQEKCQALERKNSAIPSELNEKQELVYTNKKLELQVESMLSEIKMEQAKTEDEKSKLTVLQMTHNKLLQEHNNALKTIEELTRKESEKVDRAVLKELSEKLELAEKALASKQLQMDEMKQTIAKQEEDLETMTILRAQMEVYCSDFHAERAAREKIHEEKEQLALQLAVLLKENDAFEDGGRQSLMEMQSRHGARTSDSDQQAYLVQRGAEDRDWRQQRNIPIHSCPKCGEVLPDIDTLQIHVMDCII
UniProt Q01497, sequence (whole entry, looked up): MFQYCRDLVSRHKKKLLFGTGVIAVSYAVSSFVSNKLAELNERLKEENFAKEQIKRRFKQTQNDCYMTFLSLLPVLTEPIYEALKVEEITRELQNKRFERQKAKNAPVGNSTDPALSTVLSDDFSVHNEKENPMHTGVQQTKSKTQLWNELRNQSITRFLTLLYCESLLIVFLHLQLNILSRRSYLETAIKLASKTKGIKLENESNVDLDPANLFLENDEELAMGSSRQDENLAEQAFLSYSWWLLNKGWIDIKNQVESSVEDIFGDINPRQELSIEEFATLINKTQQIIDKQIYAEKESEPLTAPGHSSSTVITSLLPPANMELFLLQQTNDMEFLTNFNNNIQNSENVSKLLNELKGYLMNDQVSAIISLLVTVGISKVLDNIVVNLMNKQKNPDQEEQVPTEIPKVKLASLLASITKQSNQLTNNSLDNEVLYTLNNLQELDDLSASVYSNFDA
UniProt P43583, sequence (whole entry, looked up): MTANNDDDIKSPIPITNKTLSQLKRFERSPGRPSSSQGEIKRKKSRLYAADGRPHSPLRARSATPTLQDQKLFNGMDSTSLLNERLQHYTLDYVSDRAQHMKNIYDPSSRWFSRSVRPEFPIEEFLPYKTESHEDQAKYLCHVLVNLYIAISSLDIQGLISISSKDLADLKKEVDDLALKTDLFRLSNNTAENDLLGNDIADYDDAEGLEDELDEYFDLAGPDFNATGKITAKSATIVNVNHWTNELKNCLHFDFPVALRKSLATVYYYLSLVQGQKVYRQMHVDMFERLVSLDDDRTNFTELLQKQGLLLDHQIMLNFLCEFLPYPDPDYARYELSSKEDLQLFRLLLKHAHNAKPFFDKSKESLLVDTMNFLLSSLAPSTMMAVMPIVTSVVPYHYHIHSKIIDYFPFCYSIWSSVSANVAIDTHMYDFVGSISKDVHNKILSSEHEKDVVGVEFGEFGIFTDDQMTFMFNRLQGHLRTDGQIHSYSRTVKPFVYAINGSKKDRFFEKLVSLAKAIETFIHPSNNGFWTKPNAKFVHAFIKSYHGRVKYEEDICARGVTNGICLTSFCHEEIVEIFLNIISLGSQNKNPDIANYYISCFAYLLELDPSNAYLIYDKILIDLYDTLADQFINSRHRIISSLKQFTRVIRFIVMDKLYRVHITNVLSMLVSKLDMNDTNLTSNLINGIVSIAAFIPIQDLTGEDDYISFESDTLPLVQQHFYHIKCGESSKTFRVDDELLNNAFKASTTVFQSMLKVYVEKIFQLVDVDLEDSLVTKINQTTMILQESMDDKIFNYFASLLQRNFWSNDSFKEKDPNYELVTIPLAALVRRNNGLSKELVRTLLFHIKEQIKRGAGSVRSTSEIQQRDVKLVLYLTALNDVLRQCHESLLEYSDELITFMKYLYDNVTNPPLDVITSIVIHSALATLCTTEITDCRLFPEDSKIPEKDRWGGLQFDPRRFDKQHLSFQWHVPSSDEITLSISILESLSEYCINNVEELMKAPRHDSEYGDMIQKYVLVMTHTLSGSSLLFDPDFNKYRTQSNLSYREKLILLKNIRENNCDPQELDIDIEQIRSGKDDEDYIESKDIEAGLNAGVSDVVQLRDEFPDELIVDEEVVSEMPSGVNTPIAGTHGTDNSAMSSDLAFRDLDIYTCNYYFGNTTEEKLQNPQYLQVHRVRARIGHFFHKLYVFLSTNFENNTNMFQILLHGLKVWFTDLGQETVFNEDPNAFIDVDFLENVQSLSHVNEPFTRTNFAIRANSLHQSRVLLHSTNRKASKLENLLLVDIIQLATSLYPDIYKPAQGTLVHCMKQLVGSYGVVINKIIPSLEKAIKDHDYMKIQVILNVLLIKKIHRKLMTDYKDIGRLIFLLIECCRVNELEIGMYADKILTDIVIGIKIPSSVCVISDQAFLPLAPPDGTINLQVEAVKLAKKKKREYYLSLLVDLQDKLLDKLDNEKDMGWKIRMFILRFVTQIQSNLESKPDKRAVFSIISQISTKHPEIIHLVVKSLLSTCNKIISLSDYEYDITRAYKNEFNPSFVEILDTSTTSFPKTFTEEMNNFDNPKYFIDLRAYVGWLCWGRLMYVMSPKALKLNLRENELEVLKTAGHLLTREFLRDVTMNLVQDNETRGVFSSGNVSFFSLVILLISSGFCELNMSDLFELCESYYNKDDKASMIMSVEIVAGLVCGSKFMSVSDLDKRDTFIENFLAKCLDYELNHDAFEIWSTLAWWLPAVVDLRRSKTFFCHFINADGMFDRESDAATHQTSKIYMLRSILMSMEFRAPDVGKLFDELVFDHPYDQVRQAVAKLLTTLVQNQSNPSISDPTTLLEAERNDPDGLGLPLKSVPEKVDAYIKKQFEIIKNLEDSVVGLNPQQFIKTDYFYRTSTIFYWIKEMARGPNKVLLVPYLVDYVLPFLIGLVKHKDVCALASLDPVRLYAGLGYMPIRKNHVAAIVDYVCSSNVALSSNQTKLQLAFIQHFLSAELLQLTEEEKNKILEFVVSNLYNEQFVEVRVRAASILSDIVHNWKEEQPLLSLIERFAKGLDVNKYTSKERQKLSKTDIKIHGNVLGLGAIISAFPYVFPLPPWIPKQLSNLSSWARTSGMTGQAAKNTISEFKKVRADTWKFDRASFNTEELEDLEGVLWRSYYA
UniProt P17846, sequence (whole entry, looked up): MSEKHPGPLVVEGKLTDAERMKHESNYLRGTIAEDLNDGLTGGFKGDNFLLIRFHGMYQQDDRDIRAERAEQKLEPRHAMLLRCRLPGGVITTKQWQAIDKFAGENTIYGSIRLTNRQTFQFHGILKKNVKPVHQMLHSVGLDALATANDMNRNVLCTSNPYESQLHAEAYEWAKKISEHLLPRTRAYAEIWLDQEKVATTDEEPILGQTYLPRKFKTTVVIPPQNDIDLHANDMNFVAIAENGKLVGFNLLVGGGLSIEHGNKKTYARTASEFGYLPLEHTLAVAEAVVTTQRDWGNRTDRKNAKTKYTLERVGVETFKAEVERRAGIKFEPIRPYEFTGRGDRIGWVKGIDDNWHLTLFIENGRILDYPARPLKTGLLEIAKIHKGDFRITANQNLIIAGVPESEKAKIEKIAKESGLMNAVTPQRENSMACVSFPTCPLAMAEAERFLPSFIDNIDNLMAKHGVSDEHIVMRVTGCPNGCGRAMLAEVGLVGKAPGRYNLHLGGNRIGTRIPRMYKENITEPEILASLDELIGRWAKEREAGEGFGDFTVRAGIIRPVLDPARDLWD
UniProt P49922, sequence (whole entry, looked up): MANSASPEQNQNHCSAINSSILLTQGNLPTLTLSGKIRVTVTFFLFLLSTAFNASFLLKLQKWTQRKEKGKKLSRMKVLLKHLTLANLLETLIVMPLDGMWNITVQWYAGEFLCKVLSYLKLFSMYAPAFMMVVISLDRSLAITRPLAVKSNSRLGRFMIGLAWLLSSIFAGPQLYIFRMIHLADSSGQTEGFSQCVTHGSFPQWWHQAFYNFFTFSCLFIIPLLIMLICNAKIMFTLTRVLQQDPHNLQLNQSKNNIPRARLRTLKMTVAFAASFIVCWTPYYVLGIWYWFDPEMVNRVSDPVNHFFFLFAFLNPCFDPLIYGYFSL
UniProt Q7RTV0, sequence (whole entry, looked up): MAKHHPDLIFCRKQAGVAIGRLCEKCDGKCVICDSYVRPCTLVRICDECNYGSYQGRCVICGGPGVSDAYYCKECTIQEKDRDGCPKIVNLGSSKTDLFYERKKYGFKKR

| Substance | tested on | assay | system | conditions | scale | endpoint | value |
| --- | --- | --- | --- | --- | --- | --- | --- |
| GSGAGSETVV | human SCRIB PDZ3-4 tandem (MBP fusion) | surface plasmon resonance | peptide | concentration not given | higher = stronger binding | normalised SPR binding response | 0 normalised RU |
| B1 | cysI 1-570 (Escherichia coli, UniProt P17846) | cryo-EM structure | – | – | – | binding | binds |
| EGKAPKRRQDDEGLGSKRPKME (XRCC6 537-554 (Canis lupus familiaris)) | KPNA2/KPNB1 (Homo sapiens) | pull-down | – | – | – | binding | binds |
| Peginesatide | UT7/EPO | RT-qPCR, item: NFKBIZ | – | concentration not given, 90 min, normalized to HPRT1 | reference: vehicle | mRNA level | 2.1 fold |
| QHWSYGLRPG (GNRH1 mature decapeptide; N-terminal pGlu, C-terminal amide) | GNRHR (Sus scrofa, UniProt P49922) | cryo-EM | peptide | – | – | binding | binds |
| YSDDDLDDLDDLLDDFDDEILSK (PEX19 N-terminal (Ogataea angusta)) | PEX3 38-457 (Hansenula polymorpha, UniProt Q01497) | X-ray crystallography | peptide | – | – | binding | binds |
| B2 (CCDC93 305-433) | DENND10 (Homo sapiens, UniProt Q8TCE6) | SEC | – | – | – | binding | binds |
| B3 (PSMA5) | T1, PSMG1/PSMG2 heterodimer (Homo sapiens) | cryo-EM | – | – | – | binding | binds |
| B4 (SNAPC5) | SNAPC1 (Homo sapiens, UniProt Q16533) | cross-linking | – | – | – | binding | binds |
| GPEPGPYAQPSVNTP (CRK residues 215-229; phosphotyrosine) | CRK 13-119 (Gallus gallus, UniProt Q04929) | pull-down | peptide | – | – | binding | binds |
| KKISNTAAALVSLLDEND (NUP60 267-284 (Saccharomyces cerevisiae, UniProt P39705); sequence looked up) | MLP1 382-620 (Saccharomyces cerevisiae, UniProt Q02455) | pull-down | peptide | – | – | binding | binds |
| B5 (UVR8 R338A) | LOX1 (Arabidopsis thaliana, UniProt Q06327) | pull-down | – | – | – | binding | binds |
| KETCAAKFERQHMDS (RNASE1 S-peptide 27-41 A4C (Bos taurus, UniProt P61823); Cys4 NTB mixed disulfide; sequence looked up) | RNASE1 47-150 V118C (Bos taurus, UniProt P61823) | disulfide cross-linking | peptide | – | – | binding | binds |
| B6 (PRE1) | BLM10 (Saccharomyces cerevisiae, UniProt P43583) | cryo-EM particle classification | – | – | – | binding | binds |
| B7 (PIK3R1 1-79) | PIK3R1 80-724 (Homo sapiens, UniProt P27986) | ITC | – | – | – | binding | binds |
| GSPTAILIGSLVAIILLLLLIIALVLWRLHWRR (DDR1 413-445 C422S/M437V (Homo sapiens, UniProt Q08345); sequence looked up) | DDR2 395-427 C404S (Homo sapiens, UniProt Q16832) | NMR titration | – | – | – | binding | binds |
| B8 | EMC3 C-terminal GFP fusion T102C (Homo sapiens, UniProt Q9P0I2) | cross-linking | – | – | – | binding | binds |
| CRYAA F71L (Homo sapiens) (sequence not shown) | CRYAB (Homo sapiens, UniProt P02511) | co-IP | – | – | – | binding | binds |
| B9 (EFR3B 716-787) | TTC7A/FAM126A 1-308 | BLI | – | – | – | binding | binds |
| B10 (RAB32) | OPTN (Homo sapiens, UniProt Q96CV9) | pull-down | – | – | – | binding | binds |
| colistin | Klebsiella pneumoniae | broth microdilution | clinical isolate RKI-No_503/15 | – | – | MIC | 64 µg/mL |
| NGVTKTILEPRARVEKDYGKISLEHKTKYSNEYGDEEKSAENDTSSLGSR (gld-3 860-909 (Caenorhabditis elegans, UniProt Q95ZK7); sequence looked up) | fbf-2 164-575 (Caenorhabditis elegans, UniProt Q09312) | pull-down | – | – | – | binding | binds |
| B11 (propionate kinase) | PduC/PduD/PduE (Salmonella enterica Typhimurium LT2) | cross-linking | – | – | – | binding | binds |
| B12 (SF3B1 454-1304 R625H) | PHF5A (Homo sapiens, UniProt Q7RTV0) | cryo-EM | – | – | – | binding | binds |
| B13 (BECN1 90-171) | BCL2L1 1-208 N52D/N66D (Homo sapiens, UniProt Q07817-1) | pull-down | – | – | – | binding | binds |

A few entries again:
| Substance | tested on | assay | system | conditions | scale | endpoint | value |
| --- | --- | --- | --- | --- | --- | --- | --- |
| B10 (RAB32) | OPTN (Homo sapiens, UniProt Q96CV9) | pull-down | – | – | – | binding | binds |
| QHWSYGLRPG (GNRH1 mature decapeptide; N-terminal pGlu, C-terminal amide) | GNRHR (Sus scrofa, UniProt P49922) | cryo-EM | peptide | – | – | binding | binds |
| GPEPGPYAQPSVNTP (CRK residues 215-229; phosphotyrosine) | CRK 13-119 (Gallus gallus, UniProt Q04929) | pull-down | peptide | – | – | binding | binds |
| GSGAGSETVV | human SCRIB PDZ3-4 tandem (MBP fusion) | surface plasmon resonance | peptide | concentration not given | higher = stronger binding | normalised SPR binding response | 0 normalised RU |
